Assay results from different studies.
Compare with care: the assays were run in different laboratories. Values joined by “and” are separate records of one study, mostly repeats; a detail may differ. ± marks the error that the study gave.

SMILES | assay | system | setting | scale | endpoint | value
[2H]C([2H])([18F])[C@]([2H])(N)C(=O)O | PET | athymic nude mice, U-87 MG, tumor | dose not given, 30 min post-injection |  | tissue uptake | 1.62 ± 0.09 %ID/cc
Cn1cncc1-c1c(F)cncc1NC(=O)c1c(N)nn2cc(F)cnc12 |  | human patients | oral, 150 mg twice daily, 4 days per 3 days, 21 days |  | upper gastrointestinal haemorrhage DLT | 0%
C[C@]1(CO)Cc2ncn(-c3ccc(C#N)c(Cl)c3)c2C(=O)O1 |  | healthy humans | concentration not given, food-effect part total |  | drug-related Headache incidence | 25%
O=C(c1ccc(C#Cc2cccc(F)c2)nc1)N1CCC(O)CC1 | video-EEG | Sprague-Dawley rat | intraperitoneal, 56.6 mg/kg | reference: vehicle | EEG spike rate | no effect
Cc1ccc(F)c2cc(C(=O)N[C@@H]3CCC[C@H](N4CC[C@H](N(C)S(C)(=O)=O)C4)C3)[nH]c12 |  | CD1 mouse | oral, 30 mg/kg |  | AUC(0-inf) | 2680 ng·h/mL
CCN(CCO)CCCC(C)Nc1ccnc2cc(Cl)ccc12 (centres unmarked) | item: Epistaxis grade 1 | newly diagnosed glioblastoma patients | oral, 800 mg/dose, with radiotherapy and temozolomide |  | patients with adverse event | 33%
[Cl][212Pb][Cl] |  | athymic mice, C4-2 xenograft, urine | intravenous, 2 h, 212Pb-labelled |  | tissue uptake | 21.4 ± 14.1 %ID/g
O=C1OC[C@H]2OC(O)[C@H](O)[C@@H](O)[C@@H]2OC(=O)c2cc(O)c(O)c(O)c2-c2c(O)c(O)c3oc(=O)c4c(c(O)c(O)c5oc(=O)c2c3c54)-c2c1cc(O)c(O)c2O (mixture of isomers) | subacute oral toxicity | BALB/c mice | oral, 1000 mg/kg/day, 28 days |  | spleen weight | 0.08 g
CCCCCOc1ccc(-c2ccc(-c3ccc(C(=O)N[C@H]4C[C@@H](O)[C@@H](OCC[N+](C)(C)C)NC(=O)[C@@H]5[C@@H](O)[C@@H](C)CN5C(=O)[C@H]([C@@H](C)O)NC(=O)[C@H]([C@H](O)[C@@H](O)c5ccc(O)cc5)NC(=O)[C@@H]5C[C@@H](O)CN5C(=O)[C@H]([C@@H](C)O)NC4=O)cc3)cc2)cc1 |  | adult ICU patients, mITT, serum | dose not given, Follow-up |  | alanine aminotransferase | 15.1 U/L
CC(C)Nc1ccnc(Nc2cccc(-c3cccnc3)c2)n1 | item: BUN | mouse, blood | intraperitoneal, 5 mg/kg |  | blood chemistry | 26.7 mg/dL
COc1ccc(CCC2CCCC(CCc3ccc(OC)cc3)N2C[C@@H](O)CO)cc1.Cl (stereo in doubt) |  | rabbit Purkinje fibres | 0.3 µM, cycle length 0.5 s | reference: baseline | action potential amplitude change | -1.6 ± 5.8 mV
C[C@@H](NC(=O)N1C(=O)[C@H](Cc2ccnc(N)c2)[C@H]1C(=O)O)C1CCCCC1 |  | healthy adult Chinese volunteers | continuous intravenous infusion, 1.0 mg/kg/h, 5-day infusion, CTCAE 5.0 grading |  | incidence of diarrhea | 0%
COc1ccc(C[C@@H]2NC(=O)[C@H]([C@@H](C)O)NC(=O)[C@@H]3[C@@H]4CCN3C(=O)[C@@H]3Cc5cn(c6ccc(F)cc56)CCCCCCN(Cc5ccc(cc5)CCNC(=O)[C@]5(C)CCCN5C2=O)C(=O)CCC(=O)N[C@@H](C)C(=O)N[C@H](CNC(=O)CCCCC[N+](C)(C)C)C(=O)N[C@@H](Cc2cccc(c2)CNC(=O)CO4)C(=O)N3)cc1 | item: Regurgitation | humans | concentration not given, Study-001 |  | participants with adverse event | 0%
C=CC(=O)Nc1cc(Nc2nccc(Nc3cc(Cl)c(F)cc3C(C)(C)O)n2)c(OC)cc1N1CC[C@@H](N(C)C)C1 | treatment-emergent adverse events | human | oral, 300 mg, phase I clinical trial |  | incidence of weight decreased | 11.8%
COc1cc(C(=O)NC2CCN(C)CC2)c(F)cc1Nc1ncc(C(F)(F)F)c(Oc2cccc3c2C(=O)N(C)C3)n1 |  | human patients, urine | oral, 300 mg single dose, geometric mean | reference: dose | fraction excreted in urine (0-48 h) | 8.61%
O=S(=O)(Nc1ccccc1)c1ccc(NC(=S)Nc2ccccc2)cc1 | item: BA% | male mouse, blood | oral, 80 mg/kg daily, 14 days |  | blood cell fraction | 0.34%
O=C(Nc1ccccc1)C1CCN(C(=O)Oc2cccnc2)CC1 | psychotropic effects VAS | healthy women | 20 mg | reference: pre-dose baseline, direction not given | change in internal perception score | 0
Nc1ncnc2c1ncn2[C@@H]1O[C@@H]2COP(=O)([S-])O[C@@H]3[C@H](O)[C@@H](COP([O-])(=S)O[C@H]2[C@H]1O)O[C@H]3n1cnc2c(N)ncnc21.[Na+].[Na+] (some centres unmarked) |  | non-tumor-bearing mice, blood | intravenous, 1 mg/kg, toxicity study |  | plateletcrit | 0.06 ± 0.05%
O=c1ccc2ncc(=O)n3c2n1C[C@H]3CN1CCC(NCc2cc3c(cn2)OCCC3)CC1 |  | healthy human volunteers, plasma | oral, 1500 mg single dose, geometric mean, alone |  | AUC(0-inf) | 18100 ng·h/mL
COc1ncccc1-c1cnn2ccc(N3CCN(C(=O)OC(C)C)CC3)nc12 |  | rat, thoracic spinal cord | oral, 30 mg/kg, 1.5 h, saline pretreated |  | concentration | 6.4 µM
c1ccc2c(c1)ccc1c3ccccc3ccc21 | metabolism | pooled human liver microsomes | pH 7.4 |  | Km | 0.055 µM and < 0.1 µM
CCC(C(=O)Nc1cc(NC2COC2)ccc1C)n1cc(Br)cc2nc(SCc3ccc(F)cc3)nc1-2 (centres unmarked) |  | mouse, liver microsomes |  |  | intrinsic clearance | 2500 mL/min/g protein
C[C@@H]1NC(=O)[C@H](CCCCNC(=O)CO/N=C/C(=O)NCCCC[C@@H]2NC(=O)[C@@H](Cc3ccccc3)NC(=O)[C@H](CC(=O)O)NC(=O)CNC(=O)[C@H](CCCNC(=N)N)NC2=O)NC(=O)CNC(=O)[C@@H]2CCCN2C(=O)[C@H](CCCCNC(=O)CO/N=C/C(=O)NCCCC[C@@H]2NC(=O)[C@@H](Cc3ccccc3)NC(=O)[C@H](CC(=O)O)NC(=O)CNC(=O)[C@H](CCCNC(=N)N)NC2=O)NC(=O)[C@H](CCCCNC(=O)CCNC(=O)CCNC(=O)CCNC(=O)[C@H](CCCCN)NC(=O)[C@H](Cc2ccccc2)NC(=O)CNC(=O)CN2CCCNCCNCCCNCC2)NC(=O)[C@H](CCCCNC(=O)CO/N=C/C(=O)NCCCC[C@@H]2NC(=O)[C@@H](Cc3ccccc3)NC(=O)[C@H](CC(=O)O)NC(=O)CNC(=O)[C@H](CCCNC(=N)N)NC2=O)NC(=O)CNC(=O)[C@@H]2CCCN2C(=O)[C@H](CCCCNC(=O)CO/N=C/C(=O)NCCCC[C@@H]2NC(=O)[C@@H](Cc3ccccc3)NC(=O)[C@H](CC(=O)O)NC(=O)CNC(=O)[C@H](CCCNC(=N)N)NC2=O)NC1=O [copper-64 labelled] |  | normal mice, pancreas | intravenous, 0.74 MBq, 24 h post-injection |  | tissue uptake | 0.52 ± 0.07 %ID/g
CC(C)[C@@H]1NC(=O)CNC(=O)[C@H](CC(N)=O)NC(=O)[C@H](CCCNC(=N)N)NC(=O)[C@H](Cc2ccc(O)cc2)NC(=O)[C@H](C(C)C)NC(=O)[C@@H](NC(=O)[C@@H](NC(=O)[C@H](CC(N)=O)NC(=O)[C@H](Cc2c[nH]c3ccccc23)NC(=O)[C@H](C)NC(=O)[C@H](Cc2ccccc2)NC(=O)CN)C(C)C)CSSC[C@@H](C(=O)N[C@@H](Cc2cnc[nH]2)C(=O)N[C@@H](CCCNC(=N)N)C(=O)N[C@@H](CCCNC(=N)N)C(=O)N[C@@H](C)C(=O)N[C@@H](CC(N)=O)C(N)=O)NC(=O)[C@H](C(C)C)NC(=O)[C@H](CCCNC(=N)N)NC1=O |  | ICR mice, blood | intraperitoneal, 10 mg/kg, day 5 |  | neutrophils | 18.1 ± 0.94%
O=[N+]([O-])c1ccc2c(c1)S(=O)(=O)C=C2 | flow cytometry | male C57BL/6 mice, spleen | i.p., 10 mg/kg, 8 days | reference: CD45+ cells | CD8+ cells | 11.4%
CC[C@H](C)[C@H](NC(=O)[C@H](Cc1ccccc1)NC(=O)[C@H](CCC(=O)O)NC(=O)[C@H](CCCNC(=N)N)NC(=O)[C@H](C)NC(=O)[C@H](C)NC(=O)[C@H](CCC(N)=O)NC(=O)[C@H](CCC(=O)O)NC(=O)[C@H](CCC(=O)O)NC(=O)[C@H](CC(C)C)NC(=O)[C@H](Cc1ccc(O)cc1)NC(=O)[C@H](CO)NC(=O)[C@H](CO)NC(=O)[C@@H](NC(=O)[C@H](CC(=O)O)NC(=O)[C@H](CO)NC(=O)[C@@H](NC(=O)[C@H](Cc1ccccc1)NC(=O)[C@@H](NC(=O)CNC(=O)[C@H](CCC(=O)O)NC(=O)[C@H](C)NC(=O)CCc1cnc[nH]1)[C@@H](C)O)[C@@H](C)O)C(C)C)C(=O)N[C@@H](C)C(=O)N[C@@H](Cc1c[nH]c2ccccc12)C(=O)N[C@@H](CC(C)C)C(=O)N[C@H](C(=O)N[C@@H](CCCNC(=N)N)C(=O)NCC(=O)N[C@@H](CCCNC(=N)N)C(=O)N[C@@H](CCCCNC(=O)COCCOCCNC(=O)COCCOCCNC(=O)CC[C@H](NC(=O)CCCCCCCCCCCCCCCCC(=O)O)C(=O)O)C(=O)NCC(=O)NCC(=O)N[C@@H](CO)C(=O)N[C@@H](CCCCNC(=O)[C@H](CCCCNC(=O)[C@H](CCCCNc1c(NCCCCCN(O)C(=O)CCC(=O)NCCCCCN(O)C(=O)CCC(=O)NCCCCCN(O)C(C)=O)c(=O)c1=O)Nc1c(NCCCCCN(O)C(=O)CCC(=O)NCCCCCN(O)C(=O)CCC(=O)NCCCCCN(O)C(C)=O)c(=O)c1=O)NC(=O)[C@H](CCCCNc1c(NCCCCCN(O)C(=O)CCC(=O)NCCCCCN(O)C(=O)CCC(=O)NCCCCCN(O)C(C)=O)c(=O)c1=O)Nc1c(NCCCCCN(O)C(=O)CCC(=O)NCCCCCN(O)C(=O)CCC(=O)NCCCCCN(O)C(C)=O)c(=O)c1=O)C(=O)O)C(C)C [zirconium-89 labelled] | ex vivo gamma counting | Sprague-Dawley rat, male, brain | intravenous, 1 nmol, 24 h |  | tissue uptake | 0.028 %ID/g and 0.027 %ID/g and 0.022 %ID/g and 0.019 %ID/g
C[C@]1(O)C[C@@](N)(c2ccc(-c3nc4n(c3-c3ccccc3)COc3ccncc3-4)cc2)C1 |  | human, advanced or metastatic solid tumours | once daily, dose escalation total, any grade |  | patients with Rash TEAE | 66.7%
S=c1oc(-c2ccccc2)nn1CN1CCN(Cc2ccccc2)CC1 |  | Wistar rat female | oral, 300 mg/kg, acute toxicity OECD 423 |  | serum creatinine | 0.63 ± 0.05 mg/dL
CN1CC[C@@H](c2c(O)cc(O)c3c(=O)cc(-c4ccc(C(F)(F)F)cc4Cl)oc23)[C@@H]1CO | item: Fatigue | AML | oral, 100 mg, intermittent dosing |  | patients with adverse event | 33.3%

For quick reference, copied from above:
SMILES | assay | system | setting | scale | endpoint | value
O=[N+]([O-])c1ccc2c(c1)S(=O)(=O)C=C2 | flow cytometry | male C57BL/6 mice, spleen | i.p., 10 mg/kg, 8 days | reference: CD45+ cells | CD8+ cells | 11.4%
CC[C@H](C)[C@H](NC(=O)[C@H](Cc1ccccc1)NC(=O)[C@H](CCC(=O)O)NC(=O)[C@H](CCCNC(=N)N)NC(=O)[C@H](C)NC(=O)[C@H](C)NC(=O)[C@H](CCC(N)=O)NC(=O)[C@H](CCC(=O)O)NC(=O)[C@H](CCC(=O)O)NC(=O)[C@H](CC(C)C)NC(=O)[C@H](Cc1ccc(O)cc1)NC(=O)[C@H](CO)NC(=O)[C@H](CO)NC(=O)[C@@H](NC(=O)[C@H](CC(=O)O)NC(=O)[C@H](CO)NC(=O)[C@@H](NC(=O)[C@H](Cc1ccccc1)NC(=O)[C@@H](NC(=O)CNC(=O)[C@H](CCC(=O)O)NC(=O)[C@H](C)NC(=O)CCc1cnc[nH]1)[C@@H](C)O)[C@@H](C)O)C(C)C)C(=O)N[C@@H](C)C(=O)N[C@@H](Cc1c[nH]c2ccccc12)C(=O)N[C@@H](CC(C)C)C(=O)N[C@H](C(=O)N[C@@H](CCCNC(=N)N)C(=O)NCC(=O)N[C@@H](CCCNC(=N)N)C(=O)N[C@@H](CCCCNC(=O)COCCOCCNC(=O)COCCOCCNC(=O)CC[C@H](NC(=O)CCCCCCCCCCCCCCCCC(=O)O)C(=O)O)C(=O)NCC(=O)NCC(=O)N[C@@H](CO)C(=O)N[C@@H](CCCCNC(=O)[C@H](CCCCNC(=O)[C@H](CCCCNc1c(NCCCCCN(O)C(=O)CCC(=O)NCCCCCN(O)C(=O)CCC(=O)NCCCCCN(O)C(C)=O)c(=O)c1=O)Nc1c(NCCCCCN(O)C(=O)CCC(=O)NCCCCCN(O)C(=O)CCC(=O)NCCCCCN(O)C(C)=O)c(=O)c1=O)NC(=O)[C@H](CCCCNc1c(NCCCCCN(O)C(=O)CCC(=O)NCCCCCN(O)C(=O)CCC(=O)NCCCCCN(O)C(C)=O)c(=O)c1=O)Nc1c(NCCCCCN(O)C(=O)CCC(=O)NCCCCCN(O)C(=O)CCC(=O)NCCCCCN(O)C(C)=O)c(=O)c1=O)C(=O)O)C(C)C [zirconium-89 labelled] | ex vivo gamma counting | Sprague-Dawley rat, male, brain | intravenous, 1 nmol, 24 h |  | tissue uptake | 0.028 %ID/g and 0.027 %ID/g and 0.022 %ID/g and 0.019 %ID/g
C[C@]1(O)C[C@@](N)(c2ccc(-c3nc4n(c3-c3ccccc3)COc3ccncc3-4)cc2)C1 |  | human, advanced or metastatic solid tumours | once daily, dose escalation total, any grade |  | patients with Rash TEAE | 66.7%
